Measured values pooled from the literature.
Each line is one published result; not all experiments were run side by side. ± marks the error that the study gave.
CXCR4: C-X-C chemokine receptor type 4 (CXCR4, Homo sapiens, UniProt P61073)
CD38: ADP-ribosyl cyclase/cyclic ADP-ribose hydrolase 1 (CD38, Homo sapiens, UniProt P28907)
PTH1R: Parathyroid hormone/parathyroid hormone-related peptide receptor (PTH1R, Homo sapiens, UniProt Q03431)
T1: RNA aptamer; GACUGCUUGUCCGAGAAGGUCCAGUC

| SMILES | target | assay | test system | setting | scale | endpoint | value |
| --- | --- | --- | --- | --- | --- | --- | --- |
| NC(=O)C1CCCCNC(=O)C(CCCNC(=O)c2cnccn2)NC(=O)C(Cc2ccco2)NC(=O)C(CC2CC2)NC(=O)C=CC(=O)N1 (stereo not shown) | AKT3 (Homo sapiens, UniProt Q9Y243) | DNA-templated library selection |  | one selection round |  | enrichment factor | 1.5 |
| N=C(N)NCCC[C@H](NC(=O)[C@H](Cc1ccccc1)NC(=O)[C@@H](N)CO)C(=O)N[C@@H](CC(N)=O)C(=O)NCC(N)=O | NPSR1 (Homo sapiens, UniProt Q6W5P4, N107I) | cAMP accumulation, agonist | HEK293T | human receptor, unit not given | reference: maximal assay window | maximal response | 0.41 |
| Cc1ccc(C(=O)Nc2ccc(CP(=O)(O)O)cc2CP(=O)(O)O)cc1NC(=O)c1cccc(NC(=O)Nc2cccc(C(=O)Nc3cc(C(=O)Nc4ccc(CP(=O)(O)O)cc4CP(=O)(O)O)ccc3C)c2)c1 | F11 (Homo sapiens, UniProt P03951) | enzyme activity |  | 5 µM, pH 7.4, 37 °C, with: S-2366 |  | Vmax | 106 ± 1.8 mAU/min |
| CC(C)CCC[C@@H](C)[C@H]1CC[C@H]2[C@@H]3CC=C4C[C@@H](OS(=O)(=O)O)CC[C@]4(C)[C@H]3CC[C@]12C | Prothrombin (F2, Homo sapiens, UniProt P00734) | fibrinogen clotting, inhibitor, turbidity |  | pH 7.4 |  | maximal inhibition | 26 ± 6.6% |
| [64Cu+2].c1cnc(CNCc2ccc(CN3CCCN4CCNCCCN(CC4)CC3)cc2)nc1 | CXCR4 |  | NOD/SCID mice, U87 xenografts, U87-stb-CXCR4 tumour | 60 min post-injection |  | tissue uptake | 29.3 ± 3.81 %ID/g |
| Cc1cc(O)c(C(=O)/C=C/c2ccc(Cl)cc2)c(=O)o1 | CD38 | cyclase activity, fluorometric |  | 50 µM, with: NGD+ substrate | reference: untreated | remaining activity | 17.1 ± 1.7% |
| COC(=O)[C@@]1(C)C=C(C(=O)Nc2cccc(C(=O)Nc3ccc(Nc4nccc(-c5cccnc5)n4)c(C)c3)c2)C(=O)CC1 | MAPK8 (Homo sapiens, UniProt P45983) | binding, SPR |  | 15, 40, 70 nM, parallel kinetic model |  | k4 | 0.00035 s⁻¹ |
| CC(=O)NCCN(CC(=O)NCCN(CC(=O)NCCN(CC(=O)NCCC(N)=O)C(=O)C[C@@H](N)CCCNC(=N)N)C(=O)C[C@@H](N)CCCCN)C(=O)C[C@@H](N)Cc1ccccc1 | HIV-1 TAR RNA |  |  | 25 °C |  | binding free energy ΔG° | -35.1 ± 1.3 kJ/mol |
| Nc1nc(Nc2ccccc2)nc2ccccc12 | MAPK14 (Homo sapiens, UniProt Q16539) | enzyme activity |  |  |  | ligand efficiency | 0.23 |
| C=C1CC[C@H](OCCCNC(=O)CCOCCOCCOCCOCCOCCOCCOCCOCCOCCOCCOCCOCCOCCOCCOCCOCCOCCOCCOCCOCCOCCOCCOCCOCCOCCOCCOCCOCCOCCOCCOCCOCCOCCOCCOCCOCCNC(=O)CCN2C(=O)CC(SC[C@H](NC(=O)[C@H](Cc3ccccc3)NC(=O)[C@H](CC(N)=O)NC(=O)[C@H](Cc3c[nH]cn3)NC(=O)[C@@H](NC(=O)[C@H](CC(=O)O)NC(=O)[C@H](CCC(N)=O)NC(=O)[C@H](CC(C)C)NC(=O)[C@H](CCCCN)NC(=O)[C@H](CCCCN)NC(=O)[C@H](CCCNC(=N)N)NC(=O)[C@H](CC(C)C)NC(=O)[C@H](Cc3c[nH]c4ccccc34)NC(=O)[C@H](CCC(=O)O)NC(=O)[C@@H](NC(=O)[C@H](CCCNC(=N)N)NC(=O)[C@H](CCC(=O)O)NC(=O)[C@H](CCSC)NC(=O)[C@H](CO)NC(=O)[C@H](CC(N)=O)NC(=O)[C@H](CC(C)C)NC(=O)[C@H](Cc3c[nH]cn3)NC(=O)[C@H](CCCCN)NC(=O)CNC(=O)[C@H](CC(C)C)NC(=O)[C@H](CC(N)=O)NC(=O)[C@H](Cc3c[nH]cn3)NC(=O)[C@H](CCSC)NC(=O)[C@H](CC(C)C)NC(=O)[C@H](CCC(N)=O)NC(=O)[C@@H](NC(=O)[C@H](CCC(=O)O)NC(=O)[C@H](CO)NC(=O)[C@@H](NC(=O)[C@@H](N)CO)C(C)C)[C@@H](C)CC)C(C)C)C(C)C)C(N)=O)C2=O)C/C1=C/C=C1\CCC[C@]2(C)[C@@H]([C@H](C)CCCC(C)(C)O)CC[C@@H]12 (stereo partly shown) | PTH1R | calcium signal, agonist, fluorescence |  |  |  | Emax | 93.8% |
| [64Cu+2].c1ccc(CNCc2ccc(CN3CCCN4CCNCCCN(CC4)CC3)cc2)nc1 | CXCR4 |  | NOD/SCID mice, U87 xenografts, U87-stb-CXCR4 tumour | 60 min post-injection |  | tissue uptake | 18.9 ± 4.88 %ID/g |
| CC(C)C[C@H](NC(=O)[C@@H](NC(=O)[C@@H](NC(=O)CN)[C@@H](C)O)C(C)C)C(=O)N1CCC[C@H]1C(=O)N1CCC[C@H]1C(=O)N1CCC[C@H]1C(=O)N1CCC[C@H]1C(=O)N[C@@H](Cc1ccc(O)cc1)C(=O)N[C@@H](CCCNC(=N)N)C(=O)N[C@@H](Cc1c[nH]cn1)C(=O)N[C@@H](CCCNC(=N)N)C(=O)N[C@@H](CC(N)=O)C(=O)O | WW domain-containing oxidoreductase, WW1 domain (WWOX, Homo sapiens, UniProt Q9NZC7) | binding, isothermal titration calorimetry |  |  | reference: isolated WW1 minus tandem WW1-WW2 | ΔH difference | -46 kJ/mol |
| CNC(=O)c1ccc2c(c1)N(C)S(=O)(=O)c1cnc(SC)nc1-2 | Kinesin-like protein KIF15 (Homo sapiens, UniProt Q9NS87) | microtubule-dependent ATPase activity |  | 30 µM, with: ATP 2 mM, microtubules |  | kcat | 8.1 ± 5 s^–1 |
| CC[C@H](C)[C@H](NC(=O)[C@H](CCC(=O)O)NC(=O)[C@H](CO)NC(=O)[C@@H](NC(=O)[C@@H](N)CO)C(C)C)C(=O)N[C@@H](CCC(N)=O)C(=O)N[C@@H](CC(C)C)C(=O)N[C@@H](CCSC)C(=O)N[C@@H](Cc1c[nH]cn1)C(=O)N[C@@H](CC(N)=O)C(=O)N[C@@H](CC(C)C)C(=O)NCC(=O)N[C@@H](CCCCN)C(=O)N[C@@H](Cc1c[nH]cn1)C(=O)N[C@@H](CC(C)C)C(=O)N[C@@H](CC(N)=O)C(=O)N[C@@H](CO)C(=O)N[C@@H](CCSC)C(=O)N[C@@H](CCC(=O)O)C(=O)N[C@@H](CCCNC(=N)N)C(=O)N[C@H](C(=O)N[C@@H](CCC(=O)O)C(=O)N[C@@H](Cc1c[nH]c2ccccc12)C(=O)N[C@@H](CC(C)C)C(=O)N[C@@H](CCCNC(=N)N)C(=O)N[C@@H](CCCCN)C(=O)N[C@@H](CCCCN)C(=O)N[C@@H](CC(C)C)C(=O)N[C@@H](CCC(N)=O)C(=O)N[C@@H](CC(=O)O)C(=O)N[C@H](C(=O)N[C@@H](Cc1c[nH]cn1)C(=O)N[C@@H](CC(N)=O)C(=O)N[C@@H](Cc1ccccc1)C(=O)N[C@@H](CCCCNC(=O)c1ccc2c(c1)C1(OC2=O)c2ccc(N(C)C)cc2Oc2cc(N(C)C)ccc21)C(N)=O)C(C)C)C(C)C | PTH1R | binding, NanoBRET | HEK293 stably expressing receptor | room temperature, 0.02% sodium azide, with: 5 µM coelenterazine h |  | kon | 440000 ± 80000 M⁻¹ s⁻¹ |
| COc1cc(/C=C2/SC(=S)N(CC(=O)Nc3ccccn3)C2=O)cc(OC)c1OC | CD38 | cyclase activity, fluorometric |  | 50 µM, with: NGD+ substrate | reference: untreated | remaining activity | -1.7 ± 10.3% |
| CSCC[C@H](NC(=O)[C@H](CO)NC(=O)[C@@H](NC(=O)[C@H](CCC(N)=O)NC(C)=O)[C@@H](C)O)C(=O)N[C@H](C(=O)N[C@@H](CC(=O)O)C(=O)N[C@@H](Cc1ccccc1)C(=O)N[C@@H](Cc1ccc(O)cc1)C(=O)N[C@@H](Cc1c[nH]cn1)C(=O)N[C@@H](CO)C(N)=O)[C@@H](C)O | PCNA (Homo sapiens, UniProt P12004) | isothermal titration calorimetry |  | concentration not given, pH 7.4, 25 °C, 100 mM NaCl, with: p21 peptide |  | binding enthalpy ΔH | -56 ± 7 kJ/mol |
| O=C1CC[C@H](N2Cc3cc(-c4cnn5ccc(NCCc6ccccc6)nc45)ccc3C2=O)C(=O)N1 | Cereblon/Casein kinase I alpha (CSNK1A1/CRBN, Homo sapiens, UniProt P48729+Q96SW2) | protein level, degrader, luciferase | MOLT-4 |  |  | Dmax | 0% |
| CNc1ccccc1C(=O)O[C@H]1C[C@H](n2cnc3c(N)ncnc32)O[C@@H]1COP(=O)(O)OP(=O)(O)O | Unconventional myosin-Va (Gallus gallus, UniProt Q02440, D297C/G292C/I296C/S293C/V295G) | stopped-flow FRET |  | 4–15 °C, with: 4 mM EDTA |  | dissociation rate, slow phase | ~0.5 s⁻¹ |
| NC[C@@H]1O[C@H](O[C@H]2[C@@H](O)[C@H](O[C@@H]3[C@@H](O)[C@H](N)C[C@H](N)[C@H]3O[C@H]3O[C@H](CN)[C@@H](O)[C@H](O)[C@H]3N)O[C@@H]2CO)[C@H](N)[C@@H](O)[C@@H]1O | T1, RNA aptamer | UV melting |  | 1 µM RNA, 10 µM molecule, pH 6.8, NaCl 100 mM |  | melting temperature change | 20.2 °C |
| O=C(NC[C@@H](Cc1ccc(F)cc1)N1CCC(O)(C(F)(F)F)CC1)C1(c2ccc(Cl)cc2)CCCC1 | TRPA1 (Homo sapiens, UniProt O75762, V875G) | calcium influx, agonist |  | concentration not given, V875G mutant |  | activation | inhibited |
| CC(C)(O)Cn1nc(-c2ccccc2)c2c(Cl)c(-c3ccccc3)nnc21 | Clarin-1 (CLRN1, Homo sapiens, UniProt P58418, N48K) | CLRN1 N48K expression | D6 | 0.5 h exposure then 24 h in compound-free medium |  | EC90 | 15 µM |
| O=c1ccn(C2OC(COP(=O)(O)OP(=O)(O)OP(=O)(O)O)C(O)C2O)c(=O)[nH]1 (stereo not shown) | Uncharacterized protein (Trypanosoma brucei brucei, UniProt Q386Q8) | binding, surface plasmon resonance |  |  |  | Rmax | 15.2 ± 0.02 RU |

For quick reference, copied from above:
| SMILES | target | assay | test system | setting | scale | endpoint | value |
| --- | --- | --- | --- | --- | --- | --- | --- |
| CNC(=O)c1ccc2c(c1)N(C)S(=O)(=O)c1cnc(SC)nc1-2 | Kinesin-like protein KIF15 (Homo sapiens, UniProt Q9NS87) | microtubule-dependent ATPase activity |  | 30 µM, with: ATP 2 mM, microtubules |  | kcat | 8.1 ± 5 s^–1 |
| Cc1ccc(C(=O)Nc2ccc(CP(=O)(O)O)cc2CP(=O)(O)O)cc1NC(=O)c1cccc(NC(=O)Nc2cccc(C(=O)Nc3cc(C(=O)Nc4ccc(CP(=O)(O)O)cc4CP(=O)(O)O)ccc3C)c2)c1 | F11 (Homo sapiens, UniProt P03951) | enzyme activity |  | 5 µM, pH 7.4, 37 °C, with: S-2366 |  | Vmax | 106 ± 1.8 mAU/min |
